Experimental data pooled from the literature.
A part holds a random share of what one study measured.

Block 1
Target: Sal-like protein 4, full length isoform A (SALL4, Homo sapiens, UniProt Q9UJQ4, residues 1-1053)
Chain of UniProt Q9UJQ4 (whole entry, looked up): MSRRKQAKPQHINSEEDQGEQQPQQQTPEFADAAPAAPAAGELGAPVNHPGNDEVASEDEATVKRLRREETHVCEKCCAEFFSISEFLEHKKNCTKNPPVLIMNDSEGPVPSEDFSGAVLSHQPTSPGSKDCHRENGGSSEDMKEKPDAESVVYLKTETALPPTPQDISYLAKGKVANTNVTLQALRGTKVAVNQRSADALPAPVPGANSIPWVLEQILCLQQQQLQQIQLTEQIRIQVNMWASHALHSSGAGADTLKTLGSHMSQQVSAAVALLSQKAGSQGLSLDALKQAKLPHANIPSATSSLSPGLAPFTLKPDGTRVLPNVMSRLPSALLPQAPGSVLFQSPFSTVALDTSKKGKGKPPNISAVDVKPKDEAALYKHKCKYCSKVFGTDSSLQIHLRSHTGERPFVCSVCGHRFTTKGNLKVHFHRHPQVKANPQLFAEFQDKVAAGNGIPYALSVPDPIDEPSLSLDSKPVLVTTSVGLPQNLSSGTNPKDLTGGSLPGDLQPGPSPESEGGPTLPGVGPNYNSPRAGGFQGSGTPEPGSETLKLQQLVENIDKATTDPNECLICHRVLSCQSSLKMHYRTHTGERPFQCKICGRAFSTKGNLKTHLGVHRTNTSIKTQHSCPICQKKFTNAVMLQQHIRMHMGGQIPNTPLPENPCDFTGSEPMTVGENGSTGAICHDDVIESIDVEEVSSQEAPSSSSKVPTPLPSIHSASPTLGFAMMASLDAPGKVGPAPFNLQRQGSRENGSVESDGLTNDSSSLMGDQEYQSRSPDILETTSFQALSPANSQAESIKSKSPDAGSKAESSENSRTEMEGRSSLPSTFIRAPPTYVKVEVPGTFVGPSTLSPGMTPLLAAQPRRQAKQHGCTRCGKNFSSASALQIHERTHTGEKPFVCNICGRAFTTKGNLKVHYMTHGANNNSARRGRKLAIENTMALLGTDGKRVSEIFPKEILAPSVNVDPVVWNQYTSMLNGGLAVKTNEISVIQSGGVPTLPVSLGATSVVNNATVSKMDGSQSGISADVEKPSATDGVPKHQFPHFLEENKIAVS
Method: universal PBM
Molecule type: double-stranded DNA, one strand shown
Matrix: in vitro
Tested at: 600 nM
Setting: 8-mer, flanks averaged, mean of replicates
Reading: higher = stronger binding
Sequence | E-score
GCCGTTCC | -0.146
GGTAATTA | 0.246
AAATATGG | 0.354
CTCGTGGA | -0.139
CCGTGAAC | -0.166
AAGAGATA | 0.177
ATAGCTTC | 0.0828
GAACCTTA | -0.0499
AAGCCGTA | 0.0588
ACATCGTA | 0.0874
AGAGCTAT | -0.0813
ACTTGTTG | -0.05
AAGCATTA | 0.228
GAAGGAGA | 0.0616
AAAGCAGT | 0.0963
AACGCTCT | -0.147
GCTCAAGC | -0.122
CTATTCAC | 0.0714
ACGATGAC | -0.0171
GCCGTCTA | -0.167

Block 2
Target: Interferon regulatory factor 7, full length, phosphomimetic (IRF7, Homo sapiens, UniProt Q92985, residues 1-503, S101K/S471D/S472D/S475D/S476D/S477D/S483D/S484D/S487D)
Chain of UniProt Q92985 (whole entry, unmodified, looked up): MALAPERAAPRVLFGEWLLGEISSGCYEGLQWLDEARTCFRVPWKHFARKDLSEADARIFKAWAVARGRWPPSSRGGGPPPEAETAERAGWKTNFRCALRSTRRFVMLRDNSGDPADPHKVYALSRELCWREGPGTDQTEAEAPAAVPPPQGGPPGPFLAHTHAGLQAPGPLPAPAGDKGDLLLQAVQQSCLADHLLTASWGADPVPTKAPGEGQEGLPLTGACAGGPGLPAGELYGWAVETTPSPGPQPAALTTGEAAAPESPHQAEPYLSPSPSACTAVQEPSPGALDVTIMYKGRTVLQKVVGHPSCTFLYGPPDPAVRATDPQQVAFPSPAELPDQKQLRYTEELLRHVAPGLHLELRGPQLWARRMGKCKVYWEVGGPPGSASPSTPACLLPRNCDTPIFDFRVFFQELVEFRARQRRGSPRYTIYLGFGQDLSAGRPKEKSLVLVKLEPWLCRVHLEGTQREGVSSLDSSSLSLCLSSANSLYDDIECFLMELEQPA
Method: protein-binding microarray
Molecule type: double-stranded DNA, one strand shown
Matrix: in vitro
Tested at: 250 nM
Setting: 60-bp whole probe
Added: salmon DNA 0.4 mg/ml
Baseline: random background probes
Reading: higher = stronger binding
All sequences stand within: GCCTAGCAC … GTCTTGATTCGCTTGACGCTGCTG
Sequence | log fluorescence [z-score]
TTAGGTTCCCTTTTCCGTTAGTGCTAG | 4.09
GACGGTCTCCTTCTCCTGGCGTGCTAG | 0.307
TTAGGACTGGACACTGGATTAGTGCTA | -0.305
TTAGGACTGCTTCTCCATTAGTGCTAG | 0.919
GGGATTTTGTCCTCCCCTCCCGTGCTA | 0.181
GACGTTTTCCTTATCCTGACGTGCTAG | 1.87
GACGATTTCAGGTTCGAGACGTGCTAG | 0.899
GAAGGTTCCGGTTTCGGGACGTGCTAG | 8.28
GACGATTCCAGTTTCGCGACGTGCTAG | 2.01
GGGCATTTGGAAAATGAAAATGTGCTA | -0.0378
GACGATTCCAGTTTCGAGATGTGCTAG | 5.93
TTAGTACTGGGTCTCGGTTAGTGCTAG | 1.22
CTGCCTTTCAATCCTAGGCCGTGCTAG | 0.693
TTAGGTTTCGGTTCCGGTGAGTGCTAG | 12.4
TCAGTTTCCTCTTTCACACTGTGCTAG | 4.55
TTTGGTCTCCTTTTCCTTTAGTGCTAG | 2.5
CACTCTCTGCTTGTATCTGGGTGCTAG | 0.818
TTAGCTTTCGGGTTTCGGTTAGTGCTA | 6.7
TTCACTTTCTTTAACATATTGTGCTAG | 1.12

Block 3
Target: Histone acetyltransferase KAT6A, winged helix 2, GST fusion (KAT6A, Homo sapiens, UniProt Q92794, residues 85-181)
Method: protein binding microarray
Molecule type: double-stranded DNA, one strand shown
Matrix: in vitro
Tested at: not given
Setting: 8-mer, flanks averaged, mean of 2 arrays, mostly near background
Baseline: not given
Reading: higher = stronger binding
Construct (chain): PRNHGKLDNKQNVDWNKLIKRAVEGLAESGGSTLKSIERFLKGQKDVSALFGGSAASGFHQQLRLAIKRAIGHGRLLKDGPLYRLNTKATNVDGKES
Sequence | E-score
CTCGGAAC | 0.108
CCCCGCCA | 0.178
ACTCTGTG | 0.12
CTGTTGAA | 0.114
ACGAGCTA | -0.0619
ACGGCCGC | 0.194
ACTTTACC | -0.0435
CCAAACCC | 0.00373
GGCAAGCA | 0.0105
AAGCAAAT | 0.0734
ACGCAAGT | 0.0606
GTGCGAGA | 0.0159
CCCAAACG | -0.0823
ACGTCTTG | -0.183
AGAGGTGC | -0.165
CACGCCTC | 0.0409
CAAGATCA | 0.0073
CACAAAAC | 0.12
CGCTTACG | -0.105
GAATGTGC | -0.0116
CCAGGCCA | -0.0379
GAAGCTAA | -0.00321
ATTCGCGG | 0.143
ACGCTTAC | -0.14
CAGAACAC | -0.155

Block 4
Target: RNA binding protein fox-1 homolog 2, RRM domain, GST-SBP tag (RBFOX2, Homo sapiens, UniProt O43251-10, residues 100-194)
Method: RNA Bind-n-Seq
Molecule type: RNA
Matrix: in vitro
Tested at: 365 nM
Setting: natural RNA segment, single round, ends assumed
Baseline: no-protein control
Reading: higher = stronger binding
All sequences stand within: GGGAGUUCUACAGUCCGACGAUC … UGGAAUUCUCGGGUGCCAA
Construct (chain): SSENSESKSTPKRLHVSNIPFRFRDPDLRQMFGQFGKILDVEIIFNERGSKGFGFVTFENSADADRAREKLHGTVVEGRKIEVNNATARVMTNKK
Sequence | RBNS enrichment (R)
AUGAUUUAGUUUUGUUAUUGCAUGUCUGUGUUAAGUAUUUUACAUUUGAGAUUGGAAUUAUUAGACAAAUCUUCCAAAGAUGCACUUUAGGAAGUUGCUAUUGGCCACAU | 2.15
CGUCCAAUGAUUUCAACCCUGCAGAGCACCCCGACAAUCCUGAGGCUGCAUCGGGAGCUAGAGCCAGCUAACAUUUCCUCUUUUCAAGACUGCCCUUGAUUUGCCCCUUG | 0.365
ACUGCUCUACUACACCAUCCACCGCGCCGCGCGCAUGUCCUUCCGUCAGCUCUUCCAGGACCUGGAGCGCUACGUGCAGGACGCCGAUGUGCGCUGGGAGUACUGCGUGC | 0.216
ACCAAGAUUUCCUCCCUUUCCUGGUGAGUGUUUCCAUUAUUCCGUUAAGGUUUAAUAUGCAUUCAGAUUACUUUUACUGAAUAGUACACCAUAAAGCUUUUGUUAUAUAU | 0.415
CUUUCCAAAUCCUAAGGAAAAAUGAAGGCAAAACAAGUGUUAUGUCCAUUCAGCCAGGAACACACUCUAGCCUUCCUGACUCUCUUAAACUGUGGACGUCAGGAGGCCGA | 0.263
ACCCUGGGAAAUUUGAGGGACCCCAAAAACUGAGGUCUCCUGCUUUCUCCAUAAUUUGGUCUCCUCUUGGGUUUGGGGAUAGUUCUAAUUUGGAGAGCUGUUUUAUCUCC | 0.249
UAACCUUUUGGGGCUGUCAGUUUUCCACUAGGAUUAAGAUUUUGGCCGGGCGCGGUGGCUCACGCCUGCAAUCCCAACACAUUGGGGGGUCGAGGCGGACGGAUCACUUU | 0.362
CGAAUGUAACCUGCGUGGUGAUGUGACAACUGUUUCCUCCCUGACCCCAGAGGAUCUGGCUCUAGGUUGGGAUCAAUCCUGAAUUUCGUUAUGUGUUAAUUUACUUUUAU | 0.484
